Results collected from several papers.
Compare with care: the assays were run in different laboratories. ± marks the error that the study gave.
histidine kinase ComD: histidine kinase ComD (Streptococcus pneumoniae serotype 2, UniProt A0A0H2ZM50)
uncharacterized protein: uncharacterized protein (Streptococcus mutans serotype c, UniProt Q8DS94)
Sequence of UniProt P50391 (whole entry, looked up): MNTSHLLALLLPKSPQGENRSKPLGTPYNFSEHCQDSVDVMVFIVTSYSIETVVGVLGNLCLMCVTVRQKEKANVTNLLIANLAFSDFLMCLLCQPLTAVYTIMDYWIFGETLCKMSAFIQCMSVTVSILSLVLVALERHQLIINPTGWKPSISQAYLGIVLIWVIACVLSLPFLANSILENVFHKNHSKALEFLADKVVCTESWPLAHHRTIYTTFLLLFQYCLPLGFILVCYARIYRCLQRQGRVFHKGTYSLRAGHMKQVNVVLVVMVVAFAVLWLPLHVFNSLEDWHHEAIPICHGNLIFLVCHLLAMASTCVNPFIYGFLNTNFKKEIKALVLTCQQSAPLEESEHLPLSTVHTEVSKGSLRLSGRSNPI
Sequence of UniProt Q9H4B4 (whole entry, looked up): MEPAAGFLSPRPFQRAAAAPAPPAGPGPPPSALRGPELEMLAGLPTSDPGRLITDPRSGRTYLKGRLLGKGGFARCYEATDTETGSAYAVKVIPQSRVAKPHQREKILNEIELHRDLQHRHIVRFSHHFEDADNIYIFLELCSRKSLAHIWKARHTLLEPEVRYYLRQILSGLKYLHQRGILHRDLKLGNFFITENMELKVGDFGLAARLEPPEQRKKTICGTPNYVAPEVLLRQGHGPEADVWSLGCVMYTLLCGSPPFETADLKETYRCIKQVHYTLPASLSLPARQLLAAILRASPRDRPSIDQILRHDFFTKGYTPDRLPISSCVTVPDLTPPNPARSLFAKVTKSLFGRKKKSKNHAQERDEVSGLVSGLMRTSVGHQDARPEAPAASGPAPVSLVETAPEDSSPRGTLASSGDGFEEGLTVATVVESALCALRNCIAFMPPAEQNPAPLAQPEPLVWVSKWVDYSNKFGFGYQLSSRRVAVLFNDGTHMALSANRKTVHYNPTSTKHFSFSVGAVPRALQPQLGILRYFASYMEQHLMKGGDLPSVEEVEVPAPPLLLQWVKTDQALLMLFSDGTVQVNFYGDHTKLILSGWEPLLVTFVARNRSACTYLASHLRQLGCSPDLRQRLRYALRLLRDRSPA
Sequence of UniProt P67775 (whole entry, looked up): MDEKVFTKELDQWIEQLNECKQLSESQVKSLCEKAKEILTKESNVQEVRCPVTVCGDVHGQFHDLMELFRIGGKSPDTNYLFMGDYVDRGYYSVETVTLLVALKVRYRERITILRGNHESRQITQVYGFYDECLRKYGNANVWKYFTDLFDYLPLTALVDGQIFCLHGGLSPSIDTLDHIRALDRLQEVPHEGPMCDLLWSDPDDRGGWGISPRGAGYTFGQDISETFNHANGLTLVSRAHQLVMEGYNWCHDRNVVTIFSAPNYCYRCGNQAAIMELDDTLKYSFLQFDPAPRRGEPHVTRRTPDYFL
Sequence of UniProt A7T1N0 (whole entry, unmodified, looked up): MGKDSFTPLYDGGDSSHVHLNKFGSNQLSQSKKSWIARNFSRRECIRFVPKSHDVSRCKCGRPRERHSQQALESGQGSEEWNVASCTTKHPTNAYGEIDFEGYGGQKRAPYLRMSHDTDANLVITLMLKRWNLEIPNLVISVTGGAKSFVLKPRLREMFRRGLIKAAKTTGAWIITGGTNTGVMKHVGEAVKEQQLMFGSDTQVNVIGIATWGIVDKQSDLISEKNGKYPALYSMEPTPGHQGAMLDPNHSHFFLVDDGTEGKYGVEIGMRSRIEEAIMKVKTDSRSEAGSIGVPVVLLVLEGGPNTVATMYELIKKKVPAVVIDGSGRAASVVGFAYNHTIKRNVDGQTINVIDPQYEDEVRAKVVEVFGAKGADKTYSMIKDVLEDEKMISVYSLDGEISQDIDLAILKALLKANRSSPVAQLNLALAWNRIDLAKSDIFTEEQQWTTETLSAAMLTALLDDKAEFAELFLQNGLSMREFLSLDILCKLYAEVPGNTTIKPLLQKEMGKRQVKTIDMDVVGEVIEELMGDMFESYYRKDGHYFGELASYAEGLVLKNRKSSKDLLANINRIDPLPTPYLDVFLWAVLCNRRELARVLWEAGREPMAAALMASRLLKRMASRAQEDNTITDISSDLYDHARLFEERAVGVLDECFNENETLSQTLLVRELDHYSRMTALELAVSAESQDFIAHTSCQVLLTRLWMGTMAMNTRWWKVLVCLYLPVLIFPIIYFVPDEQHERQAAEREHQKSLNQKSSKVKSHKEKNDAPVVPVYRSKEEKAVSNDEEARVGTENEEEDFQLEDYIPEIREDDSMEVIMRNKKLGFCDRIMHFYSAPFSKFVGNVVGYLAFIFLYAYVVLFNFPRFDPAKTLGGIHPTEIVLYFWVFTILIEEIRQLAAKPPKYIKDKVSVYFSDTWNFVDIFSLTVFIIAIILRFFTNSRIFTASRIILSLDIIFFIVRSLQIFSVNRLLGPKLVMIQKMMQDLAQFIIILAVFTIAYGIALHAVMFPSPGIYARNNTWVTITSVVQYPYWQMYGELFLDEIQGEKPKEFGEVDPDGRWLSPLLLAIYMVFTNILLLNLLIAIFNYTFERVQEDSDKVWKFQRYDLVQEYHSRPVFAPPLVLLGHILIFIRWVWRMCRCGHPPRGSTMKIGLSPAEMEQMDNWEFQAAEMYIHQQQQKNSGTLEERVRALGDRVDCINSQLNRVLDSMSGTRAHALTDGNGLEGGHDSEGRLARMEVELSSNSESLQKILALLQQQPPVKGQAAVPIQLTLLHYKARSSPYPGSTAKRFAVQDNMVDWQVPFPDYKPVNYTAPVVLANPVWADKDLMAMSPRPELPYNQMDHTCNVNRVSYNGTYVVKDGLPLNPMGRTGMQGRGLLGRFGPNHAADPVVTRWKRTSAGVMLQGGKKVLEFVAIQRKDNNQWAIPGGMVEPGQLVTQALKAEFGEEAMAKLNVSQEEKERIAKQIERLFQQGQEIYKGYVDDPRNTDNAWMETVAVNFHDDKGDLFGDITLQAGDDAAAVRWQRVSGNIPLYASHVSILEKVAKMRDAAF
Sequence of UniProt Q9VNB5 (whole entry, looked up): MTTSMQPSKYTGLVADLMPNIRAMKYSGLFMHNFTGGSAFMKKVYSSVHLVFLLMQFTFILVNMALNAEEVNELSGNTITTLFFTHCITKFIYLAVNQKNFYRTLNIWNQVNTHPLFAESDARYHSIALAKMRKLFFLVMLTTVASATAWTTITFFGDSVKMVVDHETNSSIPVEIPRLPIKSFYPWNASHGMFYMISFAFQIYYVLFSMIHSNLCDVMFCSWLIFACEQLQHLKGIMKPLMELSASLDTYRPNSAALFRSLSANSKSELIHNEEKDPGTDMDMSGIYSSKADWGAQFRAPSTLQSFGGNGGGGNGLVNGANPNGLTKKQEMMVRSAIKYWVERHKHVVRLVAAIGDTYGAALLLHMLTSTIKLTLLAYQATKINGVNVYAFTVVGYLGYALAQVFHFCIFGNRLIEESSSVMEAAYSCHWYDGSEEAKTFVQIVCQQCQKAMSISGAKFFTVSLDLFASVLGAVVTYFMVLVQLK
Sequence of UniProt P54292 (whole entry, looked up): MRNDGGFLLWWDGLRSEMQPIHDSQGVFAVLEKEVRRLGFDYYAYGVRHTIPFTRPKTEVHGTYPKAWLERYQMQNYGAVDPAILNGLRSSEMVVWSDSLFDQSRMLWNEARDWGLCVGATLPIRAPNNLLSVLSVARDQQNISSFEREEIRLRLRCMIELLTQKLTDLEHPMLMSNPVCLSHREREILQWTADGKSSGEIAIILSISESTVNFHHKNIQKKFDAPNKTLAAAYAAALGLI

Structure (SMILES)	target	test	system	setting	EC50 [µM]
CC[C@H](C)[C@H](NC(=O)[C@H](Cc1c[nH]cn1)NC(=O)[C@@H](NC(=O)[C@H](CCC(N)=O)NC(=O)[C@H](CCCNC(=N)N)NC(=O)[C@@H](NC(=O)[C@@H](N)CCC(=O)O)[C@@H](C)CC)[C@@H](C)O)C(=O)N[C@@H](Cc1ccccc1)C(=O)N[C@@H](Cc1ccccc1)C(=O)N[C@@H](Cc1ccccc1)C(=O)N[C@@H](Cc1ccccc1)C(=O)N[C@@H](Cc1ccccc1)C(=O)N[C@@H](Cc1ccccc1)C(=O)N[C@@H](CCCCN)C(=O)N[C@@H](CCCNC(=N)N)C(=O)N[C@@H](CCCNC(=N)N)C(=O)O	histidine kinase ComD	reporter gene, agonist	Streptococcus pneumoniae, D39 comX::lacZ	30 min, pH 7.3, 37 °C	> 10
Nc1ncnc2c1ncn2C1OC(COP(=O)(O)OP(=O)(O)OCC2OC(O)C(O)C2O)C(O)C1O (stereo not drawn)	TRPM2 (Nematostella vectensis, UniProt A7T1N0, R329A)	channel activation, agonist, inside-out patch clamp	–	estimate uncertain, added: 125 µM Ca2+ and 2.5 µM PIP2	1710 ± 934
CC(C)C[C@H](NC(=O)[C@H](C)NC(=O)[C@H](CCC(N)=O)NC(=O)[C@@H](NC(=O)[C@H](Cc1ccccc1)NC(=O)[C@H](CO)NC(=O)[C@H](CCCNC(=N)N)NC(=O)[C@H](CC(N)=O)NC(=O)[C@H](Cc1ccccc1)NC(=O)[C@H](CC(C)C)NC(=O)[C@H](CCCNC(=N)N)NC(=O)[C@H](Cc1ccccc1)NC(=O)[C@H](Cc1ccccc1)NC(=O)[C@@H](NC(=O)[C@H](CO)NC(=O)[C@H](CC(C)C)NC(=O)[C@H](CO)NC(=O)CNC(=O)[C@@H](N)CO)[C@@H](C)O)[C@@H](C)O)C(=O)NCC(=O)N[C@H](CCCCN)C(=O)O	uncharacterized protein	–	Streptococcus mutans	–	0.33
CCc1ccc(NC(=O)CSc2nnc(-c3ccncc3)n2C2CC2)cc1	Orco (Drosophila melanogaster, UniProt Q9VNB5)	calcium mobilization, agonist	HEK293 expressing Orco	–	37
CCCCCCCCc1ccc(C(=O)N[C@@H](CO)C(=O)N[C@H](C(=O)N[C@@H](C)C(=O)N[C@H](C(N)=O)[C@@H](C)CC)[C@@H](C)OP(=O)(O)O)cc1	PLK3 (Homo sapiens, UniProt Q9H4B4)	target engagement in cells	–	–	0.58
ClC/C=C/C[N+]12CN3CN(CN(C3)C1)C2	PPP2CA (Homo sapiens, UniProt P67775)	enzyme activity, activator, absorbance	–	–	0.014
CC(C)CC(=O)NC1CCCC1=O (stereo not drawn)	rhlR (Pseudomonas aeruginosa, UniProt P54292)	reporter gene, agonist	–	–	7.58
CC(=O)N[C@@H](CCCNC(=N)N)C(=O)N[C@H](Cc1ccc(O)cc1)C(=O)N[C@@H](CCCNC(=N)NC(=O)NCCCCN)C(=O)N[C@@H](CC(C)C)C(=O)N[C@@H](CCCNC(=N)N)C(=O)N[C@@H](Cc1ccc(O)cc1)C(N)=O	NPY4R (Homo sapiens, UniProt P50391)	calcium signal, agonist	–	–	0.608
CC(C)C[C@H](NC(=O)[C@H](CCCNC(=N)N)NC(=O)[C@H](Cc1ccccc1)NC(=O)[C@H](Cc1ccccc1)NC(=O)[C@@H](NC(=O)[C@H](CO)NC(=O)[C@@H](CC(C)C)NC(=O)[C@@H](CO)NC(=O)CNC(=O)[C@H](N)CO)[C@@H](C)O)C(=O)N[C@@H](Cc1ccccc1)C(=O)N[C@@H](CC(N)=O)C(=O)N[C@@H](CCCNC(=N)N)C(=O)N[C@@H](CO)C(=O)N[C@@H](Cc1ccccc1)C(=O)N[C@H](C(=O)N[C@@H](CCC(N)=O)C(=O)N[C@@H](C)C(=O)O)[C@@H](C)O	uncharacterized protein	–	Streptococcus mutans	–	0.017
CC[C@H](C)[C@H](NC(=O)[C@H](Cc1c[nH]cn1)NC(=O)[C@@H](NC(=O)[C@H](CCC(N)=O)NC(=O)[C@H](CCCNC(=N)N)NC(=O)[C@@H](NC(=O)[C@@H](N)CCC(=O)O)[C@@H](C)CC)[C@@H](C)O)C(=O)N[C@H](C(=O)N[C@@H](Cc1ccccc1)C(=O)N[C@@H](Cc1ccccc1)C(=O)N[C@@H](Cc1ccccc1)C(=O)N[C@@H](Cc1ccccc1)C(=O)N[C@@H](Cc1ccccc1)C(=O)N[C@@H](CCCCN)C(=O)N[C@@H](CCCNC(=N)N)C(=O)N[C@@H](CCCNC(=N)N)C(=O)O)[C@@H](C)CC	histidine kinase ComD	reporter gene, agonist	Streptococcus pneumoniae, D39 comX::lacZ	30 min, pH 7.3, 37 °C	> 10
CC(C)C[C@H](NC(=O)[C@H](CCCNC(=N)N)NC(=O)[C@H](Cc1ccccc1)NC(=O)[C@H](Cc1ccccc1)NC(=O)[C@@H](NC(=O)[C@H](CO)NC(=O)[C@@H](N)CC(C)C)[C@@H](C)O)C(=O)N[C@@H](Cc1ccccc1)C(=O)N[C@@H](CC(N)=O)C(=O)N[C@@H](CCCNC(=N)N)C(=O)N[C@@H](CO)C(=O)N[C@@H](Cc1ccccc1)C(=O)N[C@H](C(=O)N[C@@H](CCC(N)=O)C(=O)N[C@@H](C)C(=O)O)[C@@H](C)O	uncharacterized protein	–	Streptococcus mutans	–	0.085
CC[C@H](C)[C@H](NC(=O)[C@H](CCCCN)NC(=O)[C@H](CC(C)C)NC(=O)[C@H](Cc1ccccc1)NC(=O)[C@H](Cc1ccccc1)NC(=O)CNC(=O)[C@@H]1CCCN1C(=O)[C@H](CO)NC(=O)[C@H](CO)NC(=O)[C@H](CC(=O)O)NC(=O)[C@@H](N)CC(=O)O)C(=O)N[C@H](C(=O)N[C@@H](CCCCN)C(=O)N[C@@H](CC(N)=O)C(=O)N[C@H](C(=O)N1CCC[C@H]1C(=O)N[C@@H](CCCNC(=N)N)C(=O)N[C@@H](CC(C)C)C(N)=O)C(C)C)[C@@H](C)O	Ecdysis triggering hormone receptor A (Aedes aegypti, UniProt A7J264)	–	–	–	~0.008
